Measurements collected from several papers.
Each line is one published result; not all experiments were run side by side. Values joined by “and” are separate records of one study, mostly repeats; a detail may differ. ± marks the error that the study gave.

c1coc(-c2n[nH]cc2-c2ccnc3ccccc23)c1 — log2 fold change (KIN2 (Candida albicans); kinase binding, MIB/MS competition; Candida albicans lysate; 10 µM; reference: DMSO): -0.07
CS(=O)(=O)CCNCc1ccc(-c2ccc3ncnc(Nc4ccc(OCc5cccc(F)c5)c(Cl)c4)c3c2)o1 — ED50 (tumour growth; LoVo, mouse, subcutaneous LoVo xenograft; oral, 21 days daily, colon cancer): 186 mg/kg
OC(CCN1CCCCC1)(c1ccccc1)C1CC2C=CC1C2 (stereo not shown) — EEG beta power, O2 Pz, change in (resting-state EEG; healthy elderly humans; oral, 2 mg, eyes open, LS mean; reference: baseline): 5.8%
CC(C)C[C@H](NC(=O)C[C@H](O)[C@H](CC(C)C)NC(=O)[C@H](Cc1c[nH]cn1)NC(=O)CNC(=O)[C@@H](NC(=O)[C@H](C)NC(=O)[C@H](Cc1c[nH]c2ccccc12)NC(=O)[C@H](CCC(N)=O)NC(=O)[C@@H](Cc1ccccc1)NC(=O)COCCOCCNC(=O)CCC(C(=O)O)N1CCN(CC(=O)O)CCN(CC(=O)O)CCN(CC(=O)O)CC1)C(C)C)C(N)=O (stereo partly shown) [lutetium-177 labelled] — tissue uptake (BALB/c nu/nu mice, bladder; intravenous, 50 pmol, 1 h, together with: PA 300 µg): 61 ± 29 %ID/g
N#Cc1ccc2c(c1)[C@H]1CCCN(C(=O)c3ccc4[nH]cnc4c3)[C@H]1C2 — change from baseline (refers to: FPG; human; 80 mg once daily, day 28, adjusted mean; reference: placebo): 7.2 mg/dL
O=C1c2ccncc2C(=O)c2c1[nH]c1ccccc21 — cardiac index (female monocrotaline PAH rat; dose not given; reference: vehicle): increased
C=Cc1c(C)c2cc3nc(c(CC(=O)O)c4[nH]c(cc5nc(cc1[nH]2)C(C)=C5CC)c(C)c4C(=O)O)[C@@H](CCC(=O)O)[C@@H]3C — M2 cells (flow cytometry; mouse, 4T1 tumour-bearing; dose not given, 1 h): 10.7% and 9.88% and 10.9%
CC(=O)Nc1ccccc1 — activity score (human iPSC-derived cardiomyocytes; MyBP-C/MYH ratio, plate-normalised SD score; concentration not given, primary screen; direction not given): 3
CC1(C)CCC(c2ccc(Cl)cc2)=C(CN2CCN(c3ccc(C(=O)NS(=O)(=O)c4ccc(N[C@H](CCN5CCOCC5)CSc5ccccc5)c(S(=O)(=O)C(F)(F)F)c4)cc3)CC2)C1 — EC50 (cell kill; primary neoplastic B cells, dog 24; 24 h, unspecified B-cell neoplasm): 3.9 µM
COc1ccc(F)cc1C(=O)NCc1ccc(-c2nn([C@@H](C)C(F)(F)F)c(N)c2C(N)=O)cc1 — overall response rate (CLL/SLL patients; dose not given, prior BTK and BCL2 inhibitors): 64%
Cn1cc(-c2ccc(-c3cncc(Cl)c3N3CCC4(CCNC4=O)CC3)cc2)cn1 — log2 fold change (COLO 205; gene expression, microarray, refers to: CD59 mRNA; concentration not given, 6 h; reference: untreated cells): 2.42
CCCCCCCCCCCCCCCC(=O)NCCOC(=O)C[C@@H](CN)CC(C)C — ED50 (mechanical withdrawal threshold; mouse, carrageenan inflammatory pain; oral): 4.43 mg/kg
O=C(O)CNC(=O)Cc1ccccc1 — sarcomere length (ventricular cardiomyocytes, C57BL/6 mouse; dose not given, 0.576 s): 1.64 µm
CC(Nc1nc(N2CCCC2)nc2ccccc12)c1ccccc1 (stereo not shown) — cells with nuclear SREBP1 (importin beta-1; SREBP1 nuclear import, high content imaging; HeLa Kyoto; 5.01 µM, 3 h, together with: glucose and MG132): 95.5% and 89.3% and 86.2% and 86.5%
CC#Cc1cncc(-c2ccc3c(c2)[C@@]2(N=C(C)C(N)=N2)[C@]2(CC[C@H](OC)CC2)C3)c1 — IC50 (plasma Aβ40 reduction, PK/PD model; beagle dog; oral, free plasma concentration basis): ~0.0001 µM
C[C@@H](NC(=O)N1C(=O)[C@H](Cc2ccnc(N)c2)[C@H]1C(=O)O)C1CCCCC1 — time to maximum prothrombin time (human, plasma; continuous intravenous infusion, 1.5 mg/kg/h, days 1 to 6 of 5-day infusion, median): 28 h
CN[C@@H](C)C(=O)N[C@H]1CN(S(=O)(=O)c2cccc(S(=O)(=O)N3CC[C@H]4CC[C@@H](C(=O)NC(c5ccccc5)c5ccccc5)N4C(=O)[C@@H](NC(=O)[C@H](C)NC)C3)c2)CC[C@H]2CC[C@@H](C(=O)NC(c3ccccc3)c3ccccc3)N2C1=O — response rate (mouse pancreatic cancer PDX; dose not given, day 33, partial response plus stable disease, together with: AG): 100%
Cc1oncc1C(=O)Nc1ccc(C(F)(F)F)cc1 — DHO concentration (refers to: dihydroorotate; female CD-1 mice, blood; oral, 10 mg/kg daily, 8 h after dose 10, 10-day dosing): 15.8 ± 6.05 µM
N#Cc1ccc2c(-c3ccncc3)c(-c3ccc(F)cc3)nn2c1 — log2 fold change (kinase binding, competitor, MIB/MS competition, refers to: ENV7; Candida albicans cell lysate; 1 µM; reference: DMSO): 0.225
CO[C@H]1CC[C@H](N2C(=O)CNc3ncc(-c4ccc(C(C)(C)O)nc4)nc32)CC1 — pAKT change from baseline (flow cytometry; stimulated monocytes, human, blood; 45 mg single dose, 1.5 h, mean; reference: baseline): -55.2%
CCn1cc(-c2cc(Cn3ccnc3)cc3c2CCN([C@H](c2cc(OC)ccn2)C2CC2)C3=O)c(C(F)(F)F)n1 — EC50 (EBC-1; cell growth, inhibitor; 120 h): > 30 µM
COc1ccc(-c2cncc(N[C@@H](C)c3cccc(NC(=O)c4cncc(C)c4)c3)n2)cc1OC — delta delta Ct (refers to: rno-miR-143-3p; rat SU5416/hypoxia model, lung; dose not given, unit not given; reference: SU5416/hypoxia vehicle): 0.856
COc1cc2cc(-c3ccc(CC(=O)Nc4cc(C(C)(C)C(F)(F)F)no4)cn3)cnc2cc1OC — progressive disease as best response (RECIST v1.1; RET-altered advanced solid tumour patients; oral, 150 mg once daily, phase I): 38%
C=CCn1c(=O)c2cnc(Nc3ccc(N4CCN(C)CC4)cc3)nc2n1-c1ccc2c(n1)[C@@](O)(CC)CC2 — tumour growth inhibition (NCI-H82 xenograft, BALB/c nude mice; oral, 80 mg/kg once daily x 21, day 20; reference: vehicle): 34.8%
COc1cc(OC)c(-c2c(OC)cc(OC)cc2OC)c(OC)c1 — activity score (human iPSC-derived cardiomyocytes; MyBP-C/MYH ratio, plate-normalised SD score; concentration not given, primary screen; direction not given): 3.1
